# Measurements pooled from the literature.
# Each line is one published result; not all experiments were run side by side.
# Cell line: MDA-MB-231
SMILES,test,setting,how to read,endpoint,result
OC(c1ccc(OCc2ccccc2)cc1)c1c[nH]c2ncc(C(F)(F)F)cc12 (stereo not drawn),cell growth or viability,"10 µM, 72 h",,inhibition,28%
Cc1ccc(C(C)C)cc1.O=C(N=P(c1ccccc1)(c1ccccc1)c1ccccc1)c1ccccn1.[Cl-].[Cl][Ru+],"cell growth or viability, resazurin",,,IC20,2.5 µM
CN[C@@H](C)C(=O)N[C@H]1CN(C(=O)Cc2ccccc2)CC[C@H]2CC[C@@H](C(=O)NCc3ccc(C(F)(F)F)cc3)N2C1=O,"cIAP1 degradation, western blot, refers to: cIAP1",24 h,,onset concentration,> 100 nM
Cc1[nH]nc2c1N=C(c1ccccc1Cl)c1cnc(N3CCOCC3)cc1N2,Western blot,"concentration not given, 24 h",,STAT3 phosphorylation,inhibited
Cc1ccc(-c2c(/C=C(\C#N)C(=O)NC(C)C)n(CCCO)c3ncnc(N)c23)cc1,"RSK2 Ser386 autophosphorylation, inhibitor",2 h,,EC50,< 0.01 µM
O=C(Cc1ccccc1)Nc1nc2ccccc2n1Cc1ccccc1,"western blot, refers to: HIF-1α","10 µM, 24 h, normoxia",reference: vehicle,protein level,36%
OCc1ccc(-c2cc(C(F)(F)F)cc(C(F)(F)F)c2)o1,"cell growth or viability, MTT","100 µM, 48 h",,inhibition,94.8%
C=CC(OC(C)=O)c1ccc(OC(C)=O)c(OC)c1 (stereo not drawn),Western blot,"IC50, 24 h",reference: untreated,Bax protein level,9.4 fold
C=C1C(=O)OC2CC3=C[C@@H](C/C(C)=C/C(OC(=O)Cc4cccc5ccccc45)[C@H]12)OC3=O (stereo partly drawn),flow cytometry,"3.8 µM, 48 h",,G0/G1 phase cells,39%
Nc1cc(-c2cc(-c3ccccc3)c(C(F)(F)F)s2)n[nH]1,"cell growth or viability, MTT","100 µM, 48 h",,inhibition,99.2%
CN[C@@H](C)C(=O)N[C@H]1CN(C(=O)Cc2ccccc2)CC[C@H]2CC[C@@H](C(=O)NCc3ccc(Br)cc3)N2C1=O,"apoptosis, annexin V/PI flow cytometry",24 h,,minimum effective concentration,100 to 300 nM
CC(Cc1ccc(Cl)cc1)=C(c1ccc(Cl)cc1)c1ccc(OCCN(C)C)cc1,,,,GI50,4.27 µM
CC(=O)N[C@@H](Cc1ccc(O)cc1)CN(CC(=O)N[C@@H](CCCCN)CN(CC(=O)N[C@@H](Cc1ccccc1)CN(CC(=O)N[C@H]1CCCCNc2c(F)c(F)c(c(F)c2F)S(=O)(=O)c2c(F)c(F)c(c(F)c2F)NCCCC[C@@H](CN(CC(=O)N[C@@H](C)CN(CC(N)=O)S(C)(=O)=O)S(C)(=O)=O)NC(=O)CN(S(=O)(=O)CC(C)C)C[C@H](Cc2ccccc2)NC(=O)CN(S(=O)(=O)CCN)C1)S(=O)(=O)CC(C)C)S(=O)(=O)CCN)S(C)(=O)=O,"cell growth or viability, CCK-8",72 h,,GI50,7.95 µM
CC12CCC3c4ccc(OCCCOc5no[n+]([O-])c5S(=O)(=O)c5ccccc5)c(Br)c4CCC3C1CCC2O (stereo not drawn),western blot,"80 nM, 24 h",,ERK1/2 protein level,decreased
Cc1ccc2c(n1)c1nc(C)ccc1c1nc3cc4ccccc4cc3nc21.[Ru+2].c1ccc(-c2cccc(-c3ccccn3)n2)nc1.c1ccncc1,,,reference: dark EC50 over light EC50,phototherapeutic index,7.4
CC1(C)C(=CC=C2CCCC(C=CC3=[N+](CCCCCC(=O)O)c4ccccc4C3(C)C)=C2c2ccccc2)N(CCCCCC(=O)O)c2ccccc21,confocal microscopy,"10 µM, together with: BSA-FITC about 1 equiv",,Pearson colocalization coefficient,0.63
CCCCCCCCCCCCCC(=O)N1CCC[C@H]1C(=O)N[C@@H](CO)C(=O)N[C@@H](CCC(N)=O)C(=O)N[C@@H](CO)C(=O)N[C@@H](CCCCNC(=O)c1ccc(Br)cc1)C(=O)N[C@@H](CO)C(=O)N[C@@H](CCCCNC(=O)c1ccc(Br)cc1)C(=O)N[C@@H](C)C(=O)O,annexin V/PI flow cytometry,"200 µM, 48 h",,apoptotic cells,61%
C=CCc1ccc(OC(C)=O)c(OC)c1,"cell growth or viability, MTT",,,IC20,50 µM
CC(C)C1=C(O)C(=O)C2=C(C1=O)[C@H](O)[C@@H](O)[C@H]1C(C)(C)CCC[C@]21C,"cell growth or viability, SRB",48 h,,GI50,> 100 µM
N=C(N)NCCC[C@H](NC(=O)[C@H](Cc1c[nH]c2ccccc12)NC(=O)[C@H](CCC(N)=O)NC(=O)[C@H](Cc1c[nH]c2ccccc12)NC(=O)[C@H](CCCNC(=N)N)NC(=O)[C@H](Cc1c[nH]c2ccccc12)NC(=O)[C@H](CCC(N)=O)NC(=O)[C@@H](N)Cc1c[nH]c2ccccc12)C(N)=O,,,reference: MCF-12 IC50 over MDA-MB-231 IC50,selectivity ratio,> 1
C/C(=N\N(c1ccccc1)c1ccccc1)c1ccc(O)cc1,flow cytometry PI,"50 µM, 48 h",,S phase cells,25.8%
C[C@H]1O[C@@H]2C3=C(O[C@]2(C)[C@@]1(O)C=O)C(=O)c1c(O)cccc1C3=O,"cell growth or viability, MTT",48 h,,EC50,2.59 µg/mL
CCCCCCCCCCCCCCCOC(=O)/C=C/c1cc(O)c(O)c(OC)c1,,"concentration not given, 24 h",reference: untreated,caspase-3 activity,90 % increase
CCCCCCCCC/C=C/C=C/C(=O)N[C@H](C(=O)N[C@H]1C[C@@H](O)CCNC(=O)/C=C/[C@H](C)NC1=O)[C@@H](C)O,trypan blue cell counting,2 days,,antiproliferative concentration,0.25 µM
N=C(N)NCCC[C@H](NC(=O)[C@H](Cc1c[nH]c2ccccc12)NC(=O)[C@H](CCC(N)=O)NC(=O)[C@@H](N)Cc1c[nH]c2ccccc12)C(=O)N[C@@H](Cc1c[nH]c2ccccc12)C(=O)N[C@@H](CCC(N)=O)C(=O)N[C@@H](Cc1c[nH]c2ccccc12)C(N)=O,,,reference: erythrocyte IC50 over MDA-MB-231 IC50,selectivity ratio,> 1
CC(=O)O[C@H]1C(=O)[C@]2(C)[C@@H](OC(=O)[C@H](N)CSC3CC(=O)N(CCC(=O)Nc4ccc(-c5ccc(/N=N/c6ccc7c(S(=O)(=O)O)cc(S(=O)(=O)O)c(N)c7c6O)c(C)c5)cc4C)C3=O)C[C@H]3OC[C@@]3(OC(C)=O)[C@H]2[C@H](OC(=O)c2ccccc2)[C@]2(O)C[C@H](OC(=O)[C@H](O)[C@@H](NC(=O)c3ccccc3)c3ccccc3)C(C)=C1C2(C)C (stereo partly drawn),annexin V/PI flow cytometry,"concentration not given, 24 h",,early apoptotic cells,44.7%
CC1(C)C(=CC=C2C[N+](C)(C)CC(C=CC3=[N+](CCCCCC(=O)O)c4ccccc4C3(C)C)=C2c2ccccc2)N(CCCCCC(=O)O)c2ccccc21,,together with: FBS 10%,reference: serum-free medium,cellular uptake,no effect
N=C(N)NCCC[C@H](NC(=O)[C@H](Cc1c[nH]c2ccccc12)NC(=O)[C@H](CCC(N)=O)NC(=O)[C@H](Cc1c[nH]c2ccccc12)NC(=O)[C@@H](N)CCCNC(=N)N)C(=O)N[C@@H](Cc1c[nH]c2ccccc12)C(=O)N[C@@H](CCC(N)=O)C(=O)N[C@@H](Cc1c[nH]c2ccccc12)C(N)=O,,,reference: erythrocyte IC50 over MDA-MB-231 IC50,selectivity ratio,> 1
CC(=O)c1cccc(NC2C(NC(=O)OCc3ccccc3)C(NC(=O)N(C)C)(C(C)O)C(C)(O)C2(O)COC(=O)c2c(C)cccc2O)c1 (stereo not drawn),cell growth or viability,,,EC50,10.4 µM
C=C[C@H](OC(C)=O)c1ccc(OC(C)=O)cc1,"Western blot, refers to: phospho-Akt/Akt","concentration not given, 24 h",,phospho-Akt reduction,70 to 94%
N=C(N)NCCC[C@H](NC(=O)[C@H](Cc1c[nH]c2ccccc12)NC(=O)[C@H](CCC(N)=O)NC(=O)[C@H](Cc1c[nH]c2ccccc12)NC(=O)[C@H](CCCNC(=N)N)NC(=O)[C@H](Cc1c[nH]c2ccccc12)NC(=O)[C@H](CCC(N)=O)NC(=O)[C@H](Cc1c[nH]c2ccccc12)NC(=O)[C@@H](N)CCCNC(=N)N)C(N)=O,,,reference: erythrocyte IC50 over MDA-MB-231 IC50,selectivity ratio,> 1.3
COc1cc(OC)cc(C(O)c2c[nH]c3ncc(C(F)(F)F)cc23)c1 (stereo not drawn),cell growth or viability,"10 µM, 72 h",,inhibition,13%
CCCCCCCCCCCCCCCOC(=O)/C=C/c1cccc(O)c1,AO-PI flow cytometry,"IC50, 24 h",,late apoptotic cells,27.6%
CC/C=C\C/C=C\C/C=C\C/C=C\C/C=C\C/C=C\CCC(=O)Nc1ccn(C2OC(CO)C(O)C2(F)F)c(=O)n1 (stereo not drawn),NCI60 screen,,,TGI,22.2 µM
FC(F)(F)c1cnc2[nH]cc(Cc3ccc(Cl)c(C(F)(F)F)c3)c2c1,cell growth or viability,"10 µM, 72 h",,inhibition,19%
CCC(C(=O)O)C1CCC(C)C(C(C)C(O)C(C)C(=O)C(CC)C2OC3(C=CC(=O)C4(CCC(C)(C5CCC(O)(CC)C(C)O5)O4)O3)C(C)CC2C)O1 (stereo not drawn),MTT,together with: benzhydroxamic acid 284.0 µM,,combination index,2.7
OC(c1cccc(Cl)c1)c1c[nH]c2ncc(C(F)(F)F)cc12 (stereo not drawn),cell growth or viability,"10 µM, 72 h",,inhibition,10%
CC(=O)c1cccc(NC2C(N)C(NC(=O)N(C)C)(C(C)OC(=O)C(C)(C)C)C(C)(O)C2(O)COC(=O)C(C)(C)C)c1 (stereo not drawn),cell growth or viability,,,EC50,2.44 µM
FC(F)(F)c1cnc2[nH]cc(Cc3cccc(Oc4ccccc4)c3)c2c1,cell growth or viability,"10 µM, 72 h",,inhibition,16%
C=CC(OC(C)=O)c1cc(OC)c(OC(C)=O)c(OC)c1 (stereo not drawn),Western blot,"IC50, 24 h",reference: untreated,cleaved PARP level,1.8 fold
OC(c1cc(F)ccc1F)c1c[nH]c2ncc(C(F)(F)F)cc12 (stereo not drawn),cell growth or viability,"10 µM, 72 h",,inhibition,21%
CC1OC2OC3C4=C(OC3(C)C12O)C(=O)c1c(O)cccc1C4=O (stereo not drawn),annexin V/PI flow cytometry,"2 µg/mL, 48 h",,early apoptotic cells,49.7%

# Excerpt of the above:
SMILES,test,setting,how to read,endpoint,result
C=CCc1ccc(OC(C)=O)c(OC)c1,"cell growth or viability, MTT",,,IC20,50 µM
CC(C)C1=C(O)C(=O)C2=C(C1=O)[C@H](O)[C@@H](O)[C@H]1C(C)(C)CCC[C@]21C,"cell growth or viability, SRB",48 h,,GI50,> 100 µM
N=C(N)NCCC[C@H](NC(=O)[C@H](Cc1c[nH]c2ccccc12)NC(=O)[C@H](CCC(N)=O)NC(=O)[C@H](Cc1c[nH]c2ccccc12)NC(=O)[C@H](CCCNC(=N)N)NC(=O)[C@H](Cc1c[nH]c2ccccc12)NC(=O)[C@H](CCC(N)=O)NC(=O)[C@@H](N)Cc1c[nH]c2ccccc12)C(N)=O,,,reference: MCF-12 IC50 over MDA-MB-231 IC50,selectivity ratio,> 1
